Assay results of several laboratories.
“And” joins repeats or separate records; there may be more than shown. ± marks the error that the study gave.

SMILES	test	system	setting	how to read	quantity	result
COc1ccc2c(c1)CCn1c[n+]3c(c1-2)-c1ccc(OC)cc1CC3	–	female NSG mice, blood	6 mg/kg, day 7, 5 days per week	–	mean corpuscular volume	48.05 ± 0.2 fL
Cc1cccc(-c2ccc3nc(N)nn3c2)c1	–	mouse liver microsomes	30 min	–	metabolic turnover	31%
O=C(NS(=O)(=O)c1cccs1)c1cc2ccccc2n1Cc1ccc(Br)c2ccccc12	–	Sprague-Dawley rat, male	oral, dose not given, 0.25 h	–	plasma concentration	2520 ng/mL
CN1CCC[C@]1(C)/C=C/S(=O)(=O)NC(=O)Nc1c2c(cc3c1CCC3)CC=C2	–	human, plasma	oral, 100 mg twice daily of parent drug, day 14, metabolite of dosed drug	–	AUC(0-24)	932 µg·h/mL
CC(C)[C@H](NC(=O)[C@H](Cc1c[nH]c2ccccc12)NC(=O)[C@H](CCCNC(=N)N)NC(=O)[C@H](CCCNC(=N)N)NC(=O)[C@@H](NC(=O)[C@@H](NC(=O)[C@H](CCCNC(=N)N)NC(=O)[C@@H](NC(=O)[C@@H](NC(=O)[C@H](CCCNC(=N)N)NC(=O)[C@H](CCCNC(=N)N)NC(=O)[C@@H](NC(=O)[C@H](Cc1c[nH]c2ccccc12)NC(=O)[C@H](CCCNC(=N)N)NC(=O)[C@H](CCCNC(=N)N)NC(=O)[C@@H](NC(=O)[C@H](CCCNC(=N)N)NC(=O)[C@H](CCCNC(=N)N)NC(=O)[C@@H](NC(=O)[C@H](Cc1c[nH]c2ccccc12)NC(=O)[C@H](CCCNC(=N)N)NC(=O)[C@@H](N)CCCNC(=N)N)C(C)C)C(C)C)C(C)C)C(C)C)C(C)C)C(C)C)C(C)C)C(=O)N[C@@H](CCCNC(=N)N)C(=O)N[C@@H](CCCNC(=N)N)C(=O)O	–	CD1 mouse, plasma	intravenous, 15 mg/kg, 24 h, [14C]-labelled compound	–	anion gap	39.7 mEq/L
CC[C@H](C)[C@@H](C(=O)N[C@@H](CC(C)C)C(=O)N[C@@H](CO)C(=O)N[C@@H](CO)C(=O)N[C@H](C(=O)N[C@@H](CCC(=O)O)C(=O)N[C@H](C(=O)NCC(=O)N[C@@H](CO)C(=O)N[C@@H](CC(N)=O)C(=O)N[C@H](C(=O)N1C[C@H](O)C[C@H]1C(N)=O)[C@@H](C)O)C(C)C)[C@@H](C)O)N(C)C(=O)[C@H](C)NC(=O)CN(C)C(=O)[C@H](Cc1ccccc1)NC(=O)[C@H](CO)NC(=O)[C@H](CO)NC(=O)[C@H](CCCNC(=N)N)NC(=O)[C@H](CCC(N)=O)NC(=O)[C@H](CC(C)C)NC(=O)[C@H](Cc1ccccc1)NC(=O)[C@H](CCCC(=O)O)NC(=O)[C@H](C)NC(=O)[C@H](CC(C)C)NC(=O)[C@H](CCCNC(=N)N)NC(=O)[C@H](CCC(=O)O)NC(=O)[C@@H](NC(=O)[C@H](C)NC(=O)[C@@H]1CCCCNC(=O)C[C@H](NC(=O)[C@H](CCCNC(=N)N)NC(=O)CC[C@H](NC(=O)CCCCCCCCCCCCCCCCCCC(=O)O)C(=O)O)C(=O)NCC(=O)N[C@@H]([C@@H](C)O)C(=O)N[C@@H](C)C(=O)N[C@@H]([C@@H](C)O)C(=O)N1)[C@@H](C)O	DLS	histidine buffer, mannitol, NaCl	pH 6.1, 25 °C	–	particle size	1.8 to 3.9 nm
N[C@@H](CC(=O)O)C(=O)OC(C(=O)O)c1ccc(Br)cc1[N+](=O)[O-] (mixture of isomers)	1H NMR, dark	50 mM sodium phosphate	concentration not given, pH 5.8, room temperature, 12.5% DMSO-d6	–	hydrolysis half-life, B isomer	18 ± 1 h
CN(O)C(=O)CCC(=O)NCCCN(CCCCN(CCCNC(=O)CCC(=O)N(C)O)C(=O)CCC(=O)N(C)O)C(=O)CCC(=O)N(C)O.[89Zr]	radio-TLC	aqueous buffer	5 d, pH 7, 37 °C, 89Zr-labelled complex, added: DTPA 1000-fold excess	–	intact complex	92.9 ± 0.9%
CC(C)(C)C(=O)Nc1ccc2[nH]c(CN3CCC(N(CCCN4CCOCC4)CC4OC(n5cnc6c(N)ncnc65)C(O)C4O)CC3)nc2c1 (stereo not drawn)	–	male Sprague-Dawley rat, plasma	intravenous, 20 mg/kg, 10 h	–	concentration	26 ng/mL
CC(=O)N([O-])CCCCCNC(=O)CCC(=O)N([O-])CCCCCNC(=O)CCC(=O)N([O-])CCCCCN.[89Zr+4]	radio-TLC	aqueous buffer	7 d, pH 8.5, 37 °C, 89Zr-labelled complex, added: DTPA 100-fold excess	–	intact complex	88.9 ± 0.3%
C=C(NC(=O)c1csc(-c2nc3c(cc2O)-c2nc(cs2)C(=O)NC(C(C)O)C(=O)NC(=C(C)OC)c2nc(cs2)C(=O)NC2c4nc(cs4)C(=O)NC(COC(=O)c4c5c6c(cccc6n4O)COC(=O)C(OC4CC(C)(O)C(N(C)C)C(C)O4)C2OC5)c2nc-3cs2)n1)C(N)=O (stereo not drawn)	–	cynomolgus monkey, plasma	intravenous, 1 mg/kg, single dose, infusion	–	Cmax	13500 ng/mL
C=CC(=O)Nc1cc(Nc2nccc(-c3cn(C)c4ccccc34)n2)c(OC)cc1N(C)CCNC	–	human plasma	72 h, storage stability, low QC sample	–	recovery	57%
CN(C)C(=O)c1ccnc(N2Cc3cn(Cc4cccc(C(F)(F)F)c4)nc3C2)n1	metabolic stability	human, liver microsomes	–	–	half-life	2.25 h
CC(C)C[C@H](NC(=O)[C@@H](CCCCNC(=O)[C@@H](Cc1ccccc1)NC(=O)CCCCCCCNC(=O)CN1CCN(CC(=O)O)CCN(CC(=O)O)CCN(CC(=O)O)CC1)NC(=O)[C@H](Cc1ccc(O)cc1)NC(=O)[C@H](CO)NC(=O)[C@H](Cc1c[nH]c2ccccc12)NC(=O)[C@H](Cc1c[nH]cn1)NC(=O)[C@@H]1CCC(=O)N1)C(=O)N[C@@H](CCCNC(=N)N)C(=O)N1CCC[C@H]1C(=O)NCC(N)=O [indium-111 labelled]	–	male athymic nude mice, DU-145 prostate cancer xenograft, brain	intravenous, dose not given, 1 h, added: unlabeled blocking peptide 10 µg	–	tissue uptake	0.09 ± 0.07 %ID/g
CC(C)(O)c1ncc([S@](N)(=O)=NC(=O)Nc2c3c(cc4c2CCC4)CCC3)s1	item: skin, subcutaneous tissue disorders	healthy human	oral, dose not given, all active doses pooled	–	subjects with TEAEs	2%
Cc1cc(-c2ccc(C(=O)[C@@H]3CCCC[C@H]3C(=O)Nc3cnn4c3C(=O)NCC4)cc2)[nH]n1	–	human, urine	oral, 200 mg, 72-96 h	baseline: dose	recovery of radioactivity per interval	0.05%
CCC1=[N+]2N=C(c3ccccc3)C(=O)O[B-]2(c2ccccc2)Oc2cc(N(CC)CC)ccc21 (stereo not drawn)	UV/vis decay	aqueous buffer	–	–	hydrolysis activation energy	22.7 kcal/mol
CN1CCC[C@]1(C)/C=C/S(=O)(=O)NC(=O)Nc1c2c(cc3c1C(O)CC3)CCC2 (stereo partly drawn)	–	human, plasma	oral, 12.5 mg twice daily of parent drug, day 1, metabolite of dosed drug	–	AUC(0-24)	38.6 µg·h/mL
CCCCN1C(=O)c2cccc3c(NCCCCCCN4CCOCC4)ccc(c23)C1=O	–	dioxane	–	–	fluorescence lifetime	10.3 ns
CC1=NN(c2ccccc2)C(=O)/C1=C\c1ccc(-c2cc(C(=O)O)ccc2Cl)o1	dynamic light scattering	buffer	20 µM	–	hydrodynamic radius	3.66 nm

SMILES	test	system	setting	how to read	quantity	result
C[N+](C)(CCOCCOCCOCCNC(=S)Nc1ccc(C[C@H]2CN(CC(=O)[O-])CCN(CC(=O)[O-])CCN2CC(=O)[O-])cc1)C[c-]1cccc1.[64Cu+2].[Fe+2].c1cc[cH-]c1	OLINDA, extrapolated from mouse biodistribution, item: total body	adult male human phantom	–	–	absorbed dose	1.26 µSv/MBq
CCCC[C@H](NC(=O)CNC(=O)CNC(=O)[C@H](CCCCNC(=O)[C@H](CC(=O)O)NC(=O)C(C)c1ccc(CC(C)C)cc1)NC(=O)CN1CCN(CC(=O)O)CCN(CC(=O)O)CCN(CC(=O)O)CC1)C(=O)N[C@H]1CC(=O)NCCCC[C@@H](C(N)=O)NC(=O)[C@H](Cc2c[nH]c3ccccc23)NC(=O)[C@H](CCCNC(=N)N)NC(=O)[C@@H](Cc2ccccc2)NC(=O)[C@H](Cc2c[nH]cn2)NC1=O (stereo partly drawn) [lutetium-177 labelled]	–	C57 mice, tumour	intravenous, 0.037 MBq, 24 h	baseline: blood	tumour-to-tissue ratio	120
O=C(Nc1cnccc1-c1ccc([18F])cc1)c1ccnc(NC(=O)C2CC2)c1	–	mice, transgenic, GSK-3β, early-stage, hippocampus	intravenous, dose not given, 120 min	–	SUV	0.03
Cc1nn(-c2nc3c(F)cc(F)cc3s2)c(O)c1C(c1ccc(C(F)(F)F)cc1)c1c(C)nn(-c2nc3c(F)cc(F)cc3s2)c1O	–	male ICR mouse, plasma	intraperitoneal, 10 mg/kg, 0.05 h	–	plasma concentration	19.1 ng/mL and 34.6 ng/mL and 40.9 ng/mL
O=C(Nc1cnccc1-c1ccc([18F])nc1)c1ccnc(NC(=O)C2CC2)c1	–	FVB/NJ mice, both sexes, brain	intravenous, 25 min, median, no P-gp inhibitor	–	SUV	0.084
Cc1noc(C)c1Cn1cc(N2C(=O)CN(Cc3cccc(OS(=O)(=O)O)c3)C2=O)cn1	–	Sprague-Dawley rat, male	oral, 10 mg/kg of parent drug, 24 h	–	plasma concentration	16 ng/mL
CN1C(=O)[C@@H](Cc2ccc(O)c(I)c2)NC(=O)CNC(=O)[C@H](Cc2ccc3ccccc3c2)NC(=O)[C@H](CCCNC(=N)N)NC(=O)[C@H]1CCCNC(=O)c1ccc(CNC(=O)CN2CCN(CC(=O)O)CCN(CC(=O)O)CCN(CC(=O)O)CC2)cc1 [lutetium-177 labelled]	extrapolation method 2, OLINDA/EXM, item: 177Lu radioactivity	human, extrapolated from mice, stomach wall	–	–	absorbed dose coefficient	0.0049 mGy/MBq
CCCC[C@H]1C(=O)N(C)[C@@H](CCCC)C(=O)N[C@@H](CCCCNC(=S)Nc2ccc(CN3CCN(CC(=O)O)CCN(CC(=O)O)CC3)cc2)C(=O)N[C@H](C(=O)NCC(N)=O)CSCC(=O)N[C@@H](Cc2ccc(O)cc2)C(=O)N(C)[C@@H](C)C(=O)N[C@@H](CC(N)=O)C(=O)N2CCC[C@H]2C(=O)N[C@@H](Cc2cnc[nH]2)C(=O)N[C@@H](CCC(=O)O)C(=O)N2C[C@H](O)C[C@H]2C(=O)N[C@@H](Cc2c[nH]c3ccccc23)C(=O)N[C@@H](CO)C(=O)N[C@@H](Cc2cn(CC(=O)O)c3ccccc23)C(=O)N1C [fluorine-18 labelled]	PET, item: PD-L1	huCD34 mouse A-375 xenograft, tumour periphery beyond 3 mm	combination therapy	–	SUV	2.38 ± 0.75 SUV
CCC1=[N+]2N=C(/C=C/c3ccccc3)C(=O)O[B-]2(c2ccccc2)Oc2cc(N(CC)CC)ccc21 (stereo not drawn)	UV/vis decay	aqueous buffer	–	–	hydrolysis activation energy	24.4 kcal/mol
O=C(O)CCCCC1(N(CC(=O)O)CC(=O)O)CN(CC(=O)O)CCN(CC(=O)O)C1	pH-potentiometry, item: logK5H	0.15 M NaClO4	25 °C	–	protonation constant (log)	2.83
C[C@]12C[C@H](c3ccc(S(C)(=O)=O)cc3)C3=C4CCC(=O)C=C4CC[C@H]3[C@@H]1CC[C@@]2(O)C(F)(F)C(F)(F)F	item: compound (parent)	healthy human volunteers, pooled plasma	oral, 5 mg daily, day 28, 168 h	–	plasma concentration	1.52 ng/mL
CCc1cnc(NC(=O)c2cc(S(=O)(=O)N3CCOCC3)ccc2N(C)C2CCCC2)s1	–	mouse, blood	10 mg/kg, 3 doses	–	Bands differential count	0%
CC[C@H](C)[C@H](NC(=O)C[C@H](NC(=O)CN1CCN2CCN(CC1)CC(=O)[O][Al]([18F])[O]C(=O)C2)C(=O)O)C(=O)N[C@H]1CCc2cccc3c2N(C1=O)[C@H](C(=O)NCc1cn[nH]n1)C3	PET	C57BL/6J mice with MC-38 tumour, PBS-treated	30 min	–	maximum tumour uptake	0.82 ± 0.09 %ID/g
COc1ccc2c(c1)C(C)(C)C(/C=C/C1=C(Oc3ccc(C(=O)NCCCCOc4cc(CN(Cc5ccccn5)Cc5ccccn5)cc(CN(Cc5ccccn5)Cc5ccccn5)c4)cc3)C(=C/C=C3/N(CCCCS(=O)(=O)[O-])c4ccc(OC)cc4C3(C)C)CCC1)=[N+]2CCCCS(=O)(=O)[O-].O=[N+]([O-])[O-].O=[N+]([O-])[O-].[99Tc+].[C-]#[O+].[C-]#[O+].[C-]#[O+].[Zn+2]	–	BALB/c mouse, Staphylococcus aureus myositis, kidneys	12 h	–	tissue uptake	2.17 %ID/g and 3.09 %ID/g and 3.59 %ID/g and 3.08 %ID/g
CN1CCC[C@]1(C)/C=C/S(=O)(=O)NC(=O)Nc1c2c(cc3c1CCC3)CCC2	item: gastrointestinal disorders	human	oral, 50 mg twice daily, 14 days, multiple ascending dose	–	subjects with adverse event	33.3%
Cc1nc(N)nc2c1C(=O)N[C@@H](c1ccc(F)cc1-c1cccc(OCC[18F])n1)C2	ex vivo biodistribution	C57BL/6 mouse, whole blood	intravenous, 1 MBq, 30 min, baseline, vehicle	–	SUV	0.76 ± 0.05
C=C[C@]1(C)C[C@@H](OC(=O)CSc2ccc(NC(=O)c3ccco3)cc2)[C@]2(C)[C@H](C)CC[C@]3(CCC(=O)[C@H]32)[C@@H](C)[C@@H]1O	–	Mycoplasma gallisepticum-infected chickens, plasma	intramuscular, 80 mg/kg, 6 h	–	plasma concentration	438 ng/mL and 227 ng/mL and 293 ng/mL and 795 ng/mL and 759 ng/mL and 355 ng/mL and 209 ng/mL and 427 ng/mL
Cc1nc(N)nc2c1C(=O)N[C@@H](c1ccc(F)cc1-c1cccc(O[11CH3])n1)C2	ex vivo biodistribution	healthy mice, bone	60 min post-injection, baseline, vehicle pre-treatment	–	tracer uptake	14.7 ± 13.1 %ID
C/C(N)=N/C(=N\S(=O)(=O)c1ccc(C(F)(F)F)cc1)N1C[C@H](c2ccccc2)C(c2ccc(Cl)cc2)=N1	–	Beagle dog, plasma	oral, 36 mg/kg	–	oral bioavailability	19.3%
